Experimental data pooled from the literature.
Parts stem from different laboratories: compare values within a part only. Substitutions count along the parent as printed.

Study 1
Target: ABI1, truncated, D143A, DHFR fusion (Arabidopsis thaliana)
Method: DHFR PCA, deep sequencing
Sample: yeast
Setting: methotrexate growth selection, single substitutions
Together with: (+)-ABA 710 µM
Reference: wild-type fitted maximum
Reading: higher = stronger binding
Endpoint: relative binding score
Starting sequence: PYL1, truncated, DHFR fusion (Arabidopsis thaliana); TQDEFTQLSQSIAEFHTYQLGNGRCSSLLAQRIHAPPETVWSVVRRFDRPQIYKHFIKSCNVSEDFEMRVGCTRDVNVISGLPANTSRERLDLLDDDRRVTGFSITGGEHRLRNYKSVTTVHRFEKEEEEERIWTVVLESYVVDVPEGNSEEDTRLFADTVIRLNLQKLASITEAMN; partner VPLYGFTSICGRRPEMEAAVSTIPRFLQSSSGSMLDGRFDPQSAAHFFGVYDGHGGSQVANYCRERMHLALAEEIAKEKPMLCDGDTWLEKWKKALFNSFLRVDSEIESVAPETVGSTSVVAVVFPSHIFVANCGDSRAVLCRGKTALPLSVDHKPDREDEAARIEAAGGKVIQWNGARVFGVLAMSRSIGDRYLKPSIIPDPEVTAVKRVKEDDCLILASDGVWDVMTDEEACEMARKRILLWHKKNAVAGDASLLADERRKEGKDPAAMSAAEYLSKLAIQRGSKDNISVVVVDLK
H122W: 12.7%
L156W: 97.8%
R90N: 85.7%
D65V: 90.4%
E130H: 108%
V70N: 83.5%
R163Y: 61.7%
R132V: 112%
L82F: 76.9%
Y115P: -18.3%
T120A: 46.2%
H55K: 100%

Study 2
Target: RING finger protein unkempt homolog, zinc fingers 1-6, GST-SBP tag (UNK, Homo sapiens, UniProt Q9C0B0, residues 30-357)
Method: RNA Bind-n-Seq
Form: RNA
Sample: in vitro
Concentration: not given
Setting: RNA with constant flanks, human and mouse sites, ends assumed
Reference: input RNA pool
Reading: higher = stronger binding
Endpoint: bound/input enrichment
Shared flanks, not repeated: GGGAGUUCUACAGUCCGACGAUC … CAACAGAGGAUUGAGCAUCA
Target sequence (chain): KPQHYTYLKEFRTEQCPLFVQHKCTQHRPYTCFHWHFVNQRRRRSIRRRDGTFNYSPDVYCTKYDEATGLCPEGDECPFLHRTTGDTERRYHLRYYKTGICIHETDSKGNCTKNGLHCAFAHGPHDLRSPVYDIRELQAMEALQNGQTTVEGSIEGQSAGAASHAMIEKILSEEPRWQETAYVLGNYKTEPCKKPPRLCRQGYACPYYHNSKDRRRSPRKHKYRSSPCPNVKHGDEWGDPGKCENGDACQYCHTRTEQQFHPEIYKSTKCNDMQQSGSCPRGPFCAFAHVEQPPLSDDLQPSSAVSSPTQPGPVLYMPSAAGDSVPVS
UACAUUGGUGUAAAAUCAGCCUAUGUCAGUUAUGAUGUUCAGAAGCGUACAAUUUAUUUAAAUAUCACAAACACACUAAAUAUAACAAACAAUAACUAUUACUCUGUCGAAGUUGAAAAC: 0.789 ratio
GAAGAAAGUGAAACUGAUUCCAGCUGUUCUACACCUCUUCGGUUCAAUGAGUCCUUUAGCUUAUCUCAAGGGUUGCUGCAGUUGGAAAUGCUGCAAGAAAAGCUCAAGGAACUGGAAGAA: 0.227 ratio
UAAGGACUUCCCAGUGGUCUCAUGGUGACAACUGUCCCUCCUUUGAGUGAAGCCACAGAUGCCAGGCAGGUUCUAUUCUCUGCUACAGGCUAUGCCCUAGACGCUCUUGAGUAACUUUAG: 0.25 ratio
GUGGUAGCCAUUGGAACGCACUCAGGCAGGUGGUUUGUUCUGGAUGCAGAAACAAGAGAUCUGGUGUCAAUCCACACGGAUGGCAAUGAGCAGCUGUCUGUGAUGCGCUACUCAGUAGAU: 0.197 ratio
CUCGGCAGCACUGCGCAGCUCUCGAAUCUCUCGUGCUUCAACCUUUCUUUUCUUAUUGUUAAUAGGAAAAAAUCAACAUCUGUAAAUUAAGAAUACAGCAAUUAUCUGUACAGUACUGCA: 0.122 ratio
AACCAAGGUGCUUCUCCUGGGGGGCUGCUGGACCCGGCCUGCCAGAAGACGGACCAUUUCCUGUCCUGCUACCCCUGGUUCCACGGCCCCAUCUCCAGAGUGAAAGCAGCUCAGCUGGUU: 0.0745 ratio
UGUCGGGUGGCUUAUCUGUGGGUGCCAUGGGUGAUGAUGUUCAUUUUAAGCUUUUGCCUGUAGUACAAGCACAUAAUGCUACUGAACGUUUUUCCACUUGGAGACUGUGAGCUGGUUGCU: 0.198 ratio
AGCCGUGAGGGAUACAGCAGUUUGGUCAAUAUUGUCUUAACAUGCUUCAAAUAAAUCAGAUGUUCUCAGUGCAGCUGAGUCUUGGUGAGCAGACAUGGGAAUCCGAAGGCAGCAGUAUAA: 0.257 ratio
UAUCUAAUACUAACCAAUCUGUUGGAUGUGGGUUUUAAAAAAUGUUUGCUAAACUACCCAAGUAAGAUUUACUGUAUUAAAUGGCCUUCGGGUCUGAAAAGCUUUUUUAACUUCUUGCUU: 0.166 ratio
UCCAAGUUACAAAAGUUUGAGGUGCAGAGGGAAGGCCAGAUUUUUUUUUUAAUGAAAUUAUAUAGAUUAGAUCUCAGUAUUUAAACUGUUCCUCAAUUUUGUGAGGCUGUGUUGGAAAUA: 2.54 ratio
UCGUGGGCCCCUGAGGACGCCUGGAUGGGCACUCACCCUAAGUAUCUAGAAAUGAUGGAAUUAGAUAUAGGAGAUGCCACCCAAGUUUAUGUAGCGUUCUUGGUUUACCUGGACCUCAUG: 2.67 ratio

Study 3
Target: RNA binding protein fox-1 homolog 2, RRM domain, GST-SBP tag (RBFOX2, Homo sapiens, UniProt O43251-10, residues 100-194)
Method: RNA Bind-n-Seq
Form: RNA
Sample: in vitro
Concentration: 365 nM
Setting: natural RNA segment, single round, ends assumed
Reference: no-protein control
Reading: higher = stronger binding
Endpoint: RBNS enrichment (R)
Shared flanks, not repeated: GGGAGUUCUACAGUCCGACGAUC … UGGAAUUCUCGGGUGCCAA
Target sequence (chain): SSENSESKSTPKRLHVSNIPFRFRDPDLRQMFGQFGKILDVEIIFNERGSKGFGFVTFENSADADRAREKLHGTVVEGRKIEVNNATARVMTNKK
GCAAGGAACGUGUCCGCAUGGCCUCUCAGCUUGGUAUGUGAAAAGGAAAUAGCAUACUUUUUCAAAAAUAAAUAAAUAAAAAUGGCAUCUCUGAAAAUCCCAUUCUUUGA: 3.24
UUGGACUGGCUUCAUUCUGAAUUUGUGCUAAAAUAAUCUUUCAUAAAGAGACCUCAGUUUAUAGCGUAACAGACUACACAAUGCACUGAUGUUUUCAUAAUGUUUAAGGG: 0.465
UCCUGGGCACCUCCUCUUUGCCUCCCUCCUGCCCCUUUCCUGCUGGUGGGGGCAGAUCCUGCACACACAGACACAGCGUCUGCCCCCGAGCCAUUCCCUGGAGACCCUGG: 0.875
GACAUCCUUGUCAGCCCCAGUUCCUGUGACACCUACCCCUUCAUGCUCUUUCCUCCUUCCCCCUGGGCUGACCAAAAAUGUGCUAUCUACUGUGAGCCCCUUUCCCAAGA: 0.895
CCAUCCUGUGAGGGCAGCGGUGGCGCCCGGCAAAGUUGGAGCCCUUGCGGUACCAGAAAGCAGCGAGAGCGAGACCUGGGAGCCAGGGCAGGGGUGGCUGACCCCAUGCU: 0.662
AUGAAGUACGGAACUGGGAACUGGGGUCGUUGUUGACUAAUUGGUCCUAAGAGGAUAAAUUAUGUAACUGAUUUGCCCAGCUGAAUCAGGACUGCAAAUGCCAGGCUUUC: 0.361
GAUUUGCCUUCUGUCUUAUGCCAAACACCCCUUUCUAAGAGCUGUCCCCGCUUAGUUUUAGAAGUACUAGGGGUUUUCAUACUUAUUUUAUAGAACACCCAUUUAUAUUU: 0.374
CAGCCUCCACCUCGCCGCUGGGGGACCAACAGGUUGCUUACAGCUUUGCACCCCGGCAUCAGCACAGGGGUCCCUGCCCCACCCUCCGGCAGCUCAGGGAGUGUUUUCCU: 0.249
CAGAUGAAACCUGUAUAUUAGGUGUUCAUGUGGUUAUUUUGUAUUUAAAGAUCAAAUUAUUUGACUAUUGCUAGACAUUUCUAUACUCUGUUGUAACACUGAGGUAUCUC: 0.871
UGGAACUGAAACUACAACCAAUGUGCUCCGCUGGGCAAUUCUUUUCAUGGCCCUUUAUCCUAAUAUUCAAGGACAAGUUCAUAAAGAGAUUGAUUUAAUUGUGGGCCACA: 0.391
CUCAACUUUUCUGCCACCAGACUGUUAACUUUGCUAAAUGGCUCAAGAACAGUCAGUUAGCCCUGCUGUCUUGACUAUGUUGUUUUUAAUCACUGUGACCUCUGAAUUUU: 0.365
UAUACACCAAAAAGAAAUCUUUACUUUCCUUGUGUUAUAAAAAUAAUAAAAAUAUUUUACUAGUAUGAAAUCACAAGCAUGUUUGACUUCAGUGGGACAUUUGACAGCUG: 0.877

Study 4
Target: Sal-like protein 4, full length isoform B (SALL4, Homo sapiens, UniProt Q9UJQ4-2, residues 1-616)
Method: universal PBM
Form: double-stranded DNA, one strand shown
Sample: in vitro
Concentration: not given
Setting: 8-mer, flanks averaged, mean of replicates
Reading: higher = stronger binding
Endpoint: E-score
ATTTCGGG: 0.099
AAGTAAAT: 0.365
ACAGCAGT: -0.0566
AACTCGCC: -0.144
CCGATCGA: -0.115
CTGTTCGC: -0.00025
CGCAGCTC: -0.228
CACGAGCA: -0.181
GACTGGGA: -0.15
CCTGTAAC: 0.0377
ACTAAACG: 0.0705
ATCCACGC: -0.119
CAATAAGA: 0.249
ACTTTGAT: -0.056
ATCAGAAT: 0.0402
AAATGTAC: 0.222
CAATGTAA: 0.212
TCACGCAA: 0.147
AACCGTCA: -0.118
GTCAGGAC: -0.215
AACACCGA: -0.0626
TCTTGACA: 0.115
CGTCCTAG: -0.108
ACGCATCG: 0.0967
GTAGTAGA: 0.134

Study 5
Target: CCNE2, cyclin fold, Cln2 fusion (human)
Method: yeast growth competition, sequencing
Sample: yeast
Setting: weak parent motif
Reference: not given
Reading: higher = stronger binding
Endpoint: normalised enrichment score
Starting sequence: PKN2 docking peptide (human); VSAVQKLDFSDTM; partner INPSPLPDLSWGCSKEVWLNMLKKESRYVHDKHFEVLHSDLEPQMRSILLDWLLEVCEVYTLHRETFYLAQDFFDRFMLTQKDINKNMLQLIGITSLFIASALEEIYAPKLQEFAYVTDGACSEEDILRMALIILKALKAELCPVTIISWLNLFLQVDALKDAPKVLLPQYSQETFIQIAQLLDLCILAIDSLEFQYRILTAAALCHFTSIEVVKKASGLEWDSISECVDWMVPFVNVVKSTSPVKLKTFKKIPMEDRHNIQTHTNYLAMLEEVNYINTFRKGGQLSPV
V4M: 0.0826
V4W: -0.542
F9I: 0.141
M13W: 0.32
A3C: 0.152
S10A: -0.0459
K6D: -0.358
S2F: -0.0112
S10C: -0.239
A3K: -0.283
F9E: -0.24
V1F: 0.456
F9L: -0.26
D8E: -0.301
F9R: 0.204
T12L: 0.456

Some of these lines once more (study 4):
GTAGTAGA: 0.134
ATTTCGGG: 0.099
AACTCGCC: -0.144
ACAGCAGT: -0.0566
CACGAGCA: -0.181
TCACGCAA: 0.147
CGCAGCTC: -0.228
ACGCATCG: 0.0967
ATCCACGC: -0.119
CGTCCTAG: -0.108
AAGTAAAT: 0.365
ATCAGAAT: 0.0402
ACTAAACG: 0.0705
